Measured values pooled from the literature.
Compare with care: the assays were run in different laboratories. ± gives the spread as reported.

Sequences of proteins named here, by UniProt entry; tags and fusion partners are left off. Residues count along the entry.
UniProt P37136, 32-574 limits assumed: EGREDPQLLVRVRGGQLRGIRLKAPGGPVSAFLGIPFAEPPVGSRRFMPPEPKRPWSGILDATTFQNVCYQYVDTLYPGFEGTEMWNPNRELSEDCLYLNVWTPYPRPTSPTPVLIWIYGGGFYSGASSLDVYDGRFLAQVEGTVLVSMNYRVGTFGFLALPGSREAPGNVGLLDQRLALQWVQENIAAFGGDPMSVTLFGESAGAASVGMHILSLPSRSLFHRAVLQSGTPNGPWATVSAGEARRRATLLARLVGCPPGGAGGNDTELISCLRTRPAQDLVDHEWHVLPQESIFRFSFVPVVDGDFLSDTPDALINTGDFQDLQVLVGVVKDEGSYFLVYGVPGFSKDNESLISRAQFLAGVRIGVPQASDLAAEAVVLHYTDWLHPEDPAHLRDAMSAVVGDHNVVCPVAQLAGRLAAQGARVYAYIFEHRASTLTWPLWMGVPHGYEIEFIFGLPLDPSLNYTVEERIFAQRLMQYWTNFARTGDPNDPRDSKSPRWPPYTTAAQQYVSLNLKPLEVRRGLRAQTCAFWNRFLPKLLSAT
UniProt P17787, whole entry, looked up: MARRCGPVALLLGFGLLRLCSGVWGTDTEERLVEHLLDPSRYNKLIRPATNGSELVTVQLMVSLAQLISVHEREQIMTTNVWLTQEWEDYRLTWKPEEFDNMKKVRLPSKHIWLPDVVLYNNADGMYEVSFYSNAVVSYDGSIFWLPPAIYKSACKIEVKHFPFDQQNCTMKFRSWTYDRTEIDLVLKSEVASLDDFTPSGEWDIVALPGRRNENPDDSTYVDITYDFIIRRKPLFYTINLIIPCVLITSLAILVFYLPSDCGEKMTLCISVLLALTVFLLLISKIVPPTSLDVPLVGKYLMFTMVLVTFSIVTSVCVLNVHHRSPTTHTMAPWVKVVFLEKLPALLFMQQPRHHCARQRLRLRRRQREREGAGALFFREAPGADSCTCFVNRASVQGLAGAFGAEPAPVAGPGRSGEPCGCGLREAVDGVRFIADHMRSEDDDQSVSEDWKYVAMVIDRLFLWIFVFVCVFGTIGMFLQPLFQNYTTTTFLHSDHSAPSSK
UniProt P32297, whole entry, looked up: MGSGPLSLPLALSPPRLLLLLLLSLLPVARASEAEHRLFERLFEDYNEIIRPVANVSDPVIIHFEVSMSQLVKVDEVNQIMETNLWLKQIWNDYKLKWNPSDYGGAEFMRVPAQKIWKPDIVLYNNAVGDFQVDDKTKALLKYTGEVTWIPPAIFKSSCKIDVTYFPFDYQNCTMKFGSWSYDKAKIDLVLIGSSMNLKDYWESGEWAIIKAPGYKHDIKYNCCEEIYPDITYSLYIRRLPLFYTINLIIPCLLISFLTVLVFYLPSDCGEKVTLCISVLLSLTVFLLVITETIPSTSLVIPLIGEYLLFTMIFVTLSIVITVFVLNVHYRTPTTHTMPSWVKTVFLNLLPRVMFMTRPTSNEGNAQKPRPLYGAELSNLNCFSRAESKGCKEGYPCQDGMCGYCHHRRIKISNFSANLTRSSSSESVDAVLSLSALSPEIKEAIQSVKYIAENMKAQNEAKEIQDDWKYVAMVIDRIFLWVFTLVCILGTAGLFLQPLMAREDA
UniProt Q05901, whole entry, looked up: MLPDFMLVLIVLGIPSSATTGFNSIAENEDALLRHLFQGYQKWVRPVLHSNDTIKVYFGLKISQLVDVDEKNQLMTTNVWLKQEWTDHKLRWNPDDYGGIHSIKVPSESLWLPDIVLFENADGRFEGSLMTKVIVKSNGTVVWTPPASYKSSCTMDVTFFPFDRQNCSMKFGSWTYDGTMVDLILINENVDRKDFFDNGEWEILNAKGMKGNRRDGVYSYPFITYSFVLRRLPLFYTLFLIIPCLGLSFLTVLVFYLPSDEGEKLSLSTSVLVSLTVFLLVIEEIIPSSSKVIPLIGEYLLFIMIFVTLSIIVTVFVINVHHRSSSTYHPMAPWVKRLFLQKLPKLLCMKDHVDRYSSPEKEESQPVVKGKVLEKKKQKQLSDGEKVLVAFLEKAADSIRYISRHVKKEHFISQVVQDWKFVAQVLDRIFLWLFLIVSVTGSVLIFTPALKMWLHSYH
UniProt Q15825, whole entry M241L/F253L/V300I/V303I/V320I/I327V/R339S/K347N, looked up: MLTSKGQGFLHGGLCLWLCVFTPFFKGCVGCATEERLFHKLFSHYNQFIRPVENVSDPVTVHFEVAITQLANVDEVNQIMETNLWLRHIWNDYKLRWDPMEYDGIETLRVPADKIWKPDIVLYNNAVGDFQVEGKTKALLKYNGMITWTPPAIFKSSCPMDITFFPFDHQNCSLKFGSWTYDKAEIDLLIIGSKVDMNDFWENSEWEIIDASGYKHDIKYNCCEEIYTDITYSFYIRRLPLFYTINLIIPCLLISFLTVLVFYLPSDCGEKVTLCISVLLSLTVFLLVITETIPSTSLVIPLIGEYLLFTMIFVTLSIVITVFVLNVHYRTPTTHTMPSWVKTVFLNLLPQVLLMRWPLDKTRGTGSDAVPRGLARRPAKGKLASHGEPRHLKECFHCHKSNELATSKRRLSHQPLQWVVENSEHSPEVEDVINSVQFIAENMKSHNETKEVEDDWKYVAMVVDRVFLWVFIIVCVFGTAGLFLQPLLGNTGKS

SMILES = CC(=O)N[C@@H](C)C(=O)N[C@H](C(=O)N[C@@H](Cc1c[nH]c2ccccc12)C(=O)N[C@@H](CCC(=O)O)C(=O)N[C@@H](Cc1ccccc1)C(=O)N[C@@H](Cc1ccc(OP(=O)(O)O)cc1)C(=O)N[C@@H](Cc1ccc(OP(=O)(O)O)cc1)C(=O)N[C@@H](C)C(=O)N[C@@H](C)C(N)=O)C(C)C; tested on = SHP-1 catalytic domain (ΔSH2); assay = phosphatase activity, substrate; setting = pH 7.4; measurement = kcat; value = 24 ± 2 s⁻¹
SMILES = N#Cc1c(-c2ccc(Cl)cc2Cl)n(-c2nc(-c3ccc(Cl)cc3)c3c(NC(=O)c4ccccc4)nnc-3[nH]2)[nH]c1=O; tested on = HL-60(TB); setting = 10 µM; measurement = cell growth; value = 7.37%
SMILES = COc1ccc(S(=O)(=O)N(CC(C)C)C[C@@H](O)[C@H](Cc2ccccc2)NC(=O)O[C@@H]2C[C@@H]3CO[C@@H]4O[C@H]2C[C@H]34)cc1; tested on = HIV-1; assay = viral replication; system = MT-2, LAI; measurement = IC50; value = 38 nM
SMILES = COP(=O)(OC)Oc1ccc([N+](=O)[O-])cc1Cl; tested on = Ache (Rattus norvegicus, UniProt P37136); assay = enzyme activity, inhibitor, discontinuous Ellman; system = rat, postnatal day 1, rat heart homogenate; setting = 15 min, 37 °C; measurement = IC50; value = 67 nM
SMILES = CC(=O)N[C@@H](CO)C(=O)N[C@@H](C)C(=O)N[C@@H](CO)C(=O)N[C@@H](C)C(=O)N[C@@H](CO)C(=O)N[C@@H](Cc1ccc(OP(=O)(O)O)cc1)C(=O)N[C@@H](CO)C(=O)N[C@@H](C)C(=O)N[C@@H](CO)C(=O)N[C@@H](C)C(N)=O; tested on = SHP-2 catalytic domain (ΔSH2); assay = phosphatase activity, substrate; setting = pH 7.4; measurement = kcat; value = 42 ± 5 s⁻¹
SMILES = Cc1nc2c(C(=O)N(C)Cc3ccccc3)c[nH]n2c(=O)c1Cc1ccc(Cl)cc1; tested on = dengue virus 2; assay = viral replication, single-cycle viral yield; system = New Guinea C; setting = 10 µM; measurement = inhibition; value = 85%
SMILES = CCOC(=O)c1c(-c2ccc(Cl)cc2Cl)n(-c2nc(-c3ccc(Cl)cc3)c3c(NC(=O)c4ccccc4)nnc-3[nH]2)[nH]c1=O; tested on = K562; assay = SRB; measurement = GI50; value = 2760 nM
SMILES = CSCC[C@H](NC(=O)[C@H](CC(C)C)NC(=O)[C@H](CCCCN)NC(=O)[C@H](CCC(N)=O)NC(=O)[C@H](CCCNC(=N)N)NC(=O)[C@H](CCCCN)NC(=O)[C@H](CCCNC(=N)N)NC(=O)[C@H](CCC(N)=O)NC(=O)[C@@H](N)C(C)C)C(=O)N1CCC[C@H]1C(=O)O; tested on = human importin alpha1; assay = pull-down with immobilized compound; system = Jurkat cell lysate; setting = concentration not given, with: 300 µM unlabelled peptide; measurement = competition of binding; value = ~20%
SMILES = O=C(Nc1cccc(C2=NCCN2)c1)c1ccc(-c2ccc(C(=O)Nc3cccc(C4=NCCN4)c3)cc2)cc1; tested on = Trypanosoma brucei; assay = EdU labelling; setting = concentration not given; measurement = nuclear DNA replication; value = no effect
SMILES = Cc1ccc2[nH]cc(CNCC3(N4CCCC4)COC3)c2c1; tested on = T98G; assay = single-dose screen; setting = 30 µM, 48 h; how to read = reference: DMSO control; measurement = viability; value = 95.7%
SMILES = CC(C)CC(NC(=O)C(Cc1ccccc1)NC(=O)c1cnc(C(=O)NC(Cc2ccccc2)C(=O)NC(CC(C)C)B(O)O)cn1)B(O)O (stereo not drawn); tested on = proteasome (human); assay = chymotrypsin-like activity, inhibitor, Proteasome-Glo; system = RPMI-8226; setting = 24 h; measurement = IC50; value = 4.2 ± 0.38 nM
SMILES = COc1cc(C2C(C#N)=C(N)Oc3c2c(C)nn3-c2ccc(Cl)cc2)ccc1O (stereo not drawn); tested on = Vero E6; setting = 1.6 µM; measurement = viability; value = 78%
SMILES = CC/C=C\C/C=C\CCC/C=C/C=C/C=C\CCCC(=O)O; tested on = NALM-6 (p53 wild type); assay = cell growth, MTT; setting = 24 h; measurement = LD50; value = 37.5 µM
SMILES = CC(C)C1CCC(N2CCC3(CC2)C(=O)N(CCNS(N)(=O)=O)Cc2ccccc23)CC1 (stereo not drawn); assay = antinociception, warm water tail withdrawal; system = rhesus monkey; setting = subcutaneous, 50 °C, cumulative dosing; measurement = ED50; value = 0.01 mg/kg
SMILES = CC[C@H](C)[C@@H]1NC(=O)[C@H](CCC(=O)O)NC(=O)[C@@H]2CCCN2C(=O)[C@H](Cc2c[nH]cn2)NC(=O)[C@H](CCCNC(=N)N)NC(=O)[C@H](C(C)C)NC(=O)[C@H](CC(N)=O)NC(=O)[C@@H]2CSSC[C@H](NC(=O)CN)C(=O)N[C@@H](CSSC[C@@H](C(N)=O)NC1=O)C(=O)N[C@@H](CO)C(=O)N[C@@H](Cc1c[nH]cn1)C(=O)N1CCC[C@H]1C(=O)N[C@@H](C(C)C)C(=O)N2; tested on = Neuronal acetylcholine receptor; alpha3/alpha6/beta2/beta3 (Homo sapiens, UniProt P17787+P32297+Q05901+Q15825); assay = ion current, antagonist, two-electrode voltage clamp; system = Xenopus oocytes; setting = human, with: ACh 100 µM; measurement = IC50; value = 135 nM
SMILES = CC1(C)N=C(N)N=C(N)N1c1cccc(OCCCc2ccccc2)c1; tested on = Escherichia coli; assay = broth microdilution; system = ATCC 25922; setting = without thymidine; measurement = MIC90; value = > 128 µM
SMILES = CCOc1ccc(C2C(C#N)=C(N)Oc3c2c(C)nn3-c2ccc(Cl)cc2)cc1 (stereo not drawn); tested on = Vero E6; assay = MTT; setting = 100 µM; measurement = viability; value = 37.9%
SMILES = COC(=O)c1cc(Cl)ccc1NC(=O)CSc1ncc(S(=O)(=O)c2ccc(Br)cc2)c(=O)[nH]1; tested on = dengue virus 2; assay = viral replication, single-cycle viral yield; system = New Guinea C; setting = 5 µM; measurement = inhibition; value = > 90%
SMILES = CC(=O)N[C@@H](C)C(=O)N[C@@H](Cc1c[nH]c2ccccc12)C(=O)N[C@@H](CO)C(=O)N[C@@H](Cc1ccc(OP(=O)(O)O)cc1)C(=O)N[C@@H](C)C(=O)N[C@@H](CC(=O)O)C(=O)N[C@@H](Cc1ccc(OP(=O)(O)O)cc1)C(=O)N[C@@H](C)C(=O)N[C@@H](C)C(N)=O; tested on = SHP-1 catalytic domain (ΔSH2); assay = phosphatase activity, substrate; setting = pH 7.4; measurement = kcat; value = 13 ± 1 s⁻¹
SMILES = O=C(CSc1nccn1C1CCCCC1)Nc1cc(C(F)(F)F)ccc1Cl; tested on = Plasmodium falciparum; assay = parasite growth, SYBR Green; system = 3D7 wild type; setting = 72 h; measurement = EC50; value = 217 ± 84 nM
SMILES = Cc1cc(Nc2ccc(S(F)(F)(F)(F)F)cc2)n2nc(C(C)(F)F)nc2n1; tested on = Plasmodium falciparum DHODH C276F; assay = enzyme activity, inhibitor; how to read = reference: mutant over wild type; measurement = IC50 fold increase; value = 10 to 20 fold

Some of these lines once more:
SMILES = O=C(CSc1nccn1C1CCCCC1)Nc1cc(C(F)(F)F)ccc1Cl; tested on = Plasmodium falciparum; assay = parasite growth, SYBR Green; system = 3D7 wild type; setting = 72 h; measurement = EC50; value = 217 ± 84 nM
SMILES = N#Cc1c(-c2ccc(Cl)cc2Cl)n(-c2nc(-c3ccc(Cl)cc3)c3c(NC(=O)c4ccccc4)nnc-3[nH]2)[nH]c1=O; tested on = HL-60(TB); setting = 10 µM; measurement = cell growth; value = 7.37%
SMILES = CC(C)C1CCC(N2CCC3(CC2)C(=O)N(CCNS(N)(=O)=O)Cc2ccccc23)CC1 (stereo not drawn); assay = antinociception, warm water tail withdrawal; system = rhesus monkey; setting = subcutaneous, 50 °C, cumulative dosing; measurement = ED50; value = 0.01 mg/kg
